Results gathered from unrelated publications.
± marks the error that the study gave.
CDK2: Cyclin-dependent kinase 2 (CDK2, Homo sapiens, UniProt P24941)
Chain of UniProt P22413 (whole entry, looked up): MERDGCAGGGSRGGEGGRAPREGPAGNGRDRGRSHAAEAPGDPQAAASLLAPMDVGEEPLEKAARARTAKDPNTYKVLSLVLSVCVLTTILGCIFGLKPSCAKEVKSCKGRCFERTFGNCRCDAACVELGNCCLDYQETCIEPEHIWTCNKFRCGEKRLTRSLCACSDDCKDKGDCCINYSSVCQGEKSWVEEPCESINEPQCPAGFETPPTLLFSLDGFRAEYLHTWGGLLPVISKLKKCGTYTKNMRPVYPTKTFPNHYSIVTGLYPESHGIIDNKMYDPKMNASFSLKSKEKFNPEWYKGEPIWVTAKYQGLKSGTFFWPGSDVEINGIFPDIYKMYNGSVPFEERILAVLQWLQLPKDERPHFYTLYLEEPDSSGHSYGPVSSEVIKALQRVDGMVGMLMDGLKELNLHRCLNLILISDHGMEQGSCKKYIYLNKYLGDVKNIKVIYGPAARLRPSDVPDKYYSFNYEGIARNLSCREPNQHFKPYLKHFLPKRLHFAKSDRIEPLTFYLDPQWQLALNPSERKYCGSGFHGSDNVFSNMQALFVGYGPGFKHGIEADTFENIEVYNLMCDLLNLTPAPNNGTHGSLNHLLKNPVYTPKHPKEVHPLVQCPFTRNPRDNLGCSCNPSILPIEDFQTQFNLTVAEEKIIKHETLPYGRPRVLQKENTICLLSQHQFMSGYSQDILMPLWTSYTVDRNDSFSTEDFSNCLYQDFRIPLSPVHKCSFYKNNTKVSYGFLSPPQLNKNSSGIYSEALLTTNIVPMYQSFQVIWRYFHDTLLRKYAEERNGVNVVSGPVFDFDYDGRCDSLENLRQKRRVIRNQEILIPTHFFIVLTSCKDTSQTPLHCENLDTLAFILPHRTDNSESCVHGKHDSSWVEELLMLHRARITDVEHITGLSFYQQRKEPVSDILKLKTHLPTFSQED
Chain of UniProt P35462 (whole entry, looked up): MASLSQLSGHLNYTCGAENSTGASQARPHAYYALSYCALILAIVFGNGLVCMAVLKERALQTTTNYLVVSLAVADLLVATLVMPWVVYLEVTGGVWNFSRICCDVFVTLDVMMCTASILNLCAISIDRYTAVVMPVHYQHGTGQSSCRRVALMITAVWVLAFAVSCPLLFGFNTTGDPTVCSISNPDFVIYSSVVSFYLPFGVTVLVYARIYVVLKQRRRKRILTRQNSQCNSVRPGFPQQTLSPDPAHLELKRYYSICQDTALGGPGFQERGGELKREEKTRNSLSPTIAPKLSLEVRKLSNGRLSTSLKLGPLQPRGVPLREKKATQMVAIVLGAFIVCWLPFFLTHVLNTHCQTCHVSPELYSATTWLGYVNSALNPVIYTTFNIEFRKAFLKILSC

For `Cn1cc(-c2ccc(-c3cncc(Cl)c3N3CCC4(CCNC4=O)CC3)cc2)cn1`, “fold change in expression” read -6.8 (COLO 205; microarray, item: PLA2G2A; concentration not given, 6 h, gene set PLA2(hGIIA); baseline: untreated cells).
Under “average steady-state concentration”, `C[C@@H](N)COc1ccc(-c2cnc3ccc(N[C@H](C)c4cccc(F)c4)nn23)cc1` is recorded as 772 nmol/L (human, plasma; recommended dose, total).
`Cc1cc(Nc2ccc(S(F)(F)(F)(F)F)cc2)n2nc(C(C)(F)F)nc2n1`: “patients with blurred vision” 0% (Plasmodium vivax; human Plasmodium vivax malaria patients; oral, 600 mg).
`CC(C)Oc1c(NC(=O)c2ccc(NC(=O)[C@H](CC(N)=O)NC(=O)c3ccc(NC(=O)c4ccc(C#N)cc4)cc3)cc2)ccc(C(=O)Nc2ccc(C(=O)O)cc2)c1O` has a concentration of 10.3 ± 9.3 ng/mL (Escherichia coli ATCC 25922; neutropenic male CD-1 mice, kidney; iv then sc, 67.5 mg/kg/day, 24 h after infection, thigh infection model).
`c1csc(CNc2cc[nH]n2)c1`: “cells with numerical aberrations” 0.5% (human peripheral blood lymphocytes (female); 1840 µg/mL, 4 h, initial, added: with S9).
`COc1cccc(-c2n[nH]c(SCc3ccccn3)n2)c1OC`: “binucleated cells with micronuclei” 1.1% (CHO-WBL; 300 µg/mL, 3 h, without S9).
`Cc1[nH]c(C)c(S(=O)(=O)Nc2ccc(C(F)(F)F)c(Cl)c2)c1S(=O)(=O)Nc1ccc(C(F)(F)F)c(Cl)c1` gave an IC50 of over 100 µM (DRD3 (Homo sapiens, UniProt P35462); Go activation, antagonist, BRET; added: dopamine).
The Kd of `O=C(Cc1ccccc1[N+](=O)[O-])Nc1ccccc1C(=O)N1CCOCC1` is reported as over 100 µM (CDK2; binding).
With `CCc1cc(C(=O)NC)c2nccc(N3CCc4c(cc(Cn5ccnc5)cc4-c4cn(C)nc4C(F)(F)F)C3=O)c2c1` the blood TP was 59.4 ± 3.8 g/L (Sprague Dawley rats; oral, 100 mg/kg twice daily, 7 days).
`Nc1nc2c(ncn2[C@@H]2O[C@@H]3COP(=O)(O)O[C@H]4[C@@H](O)[C@H](n5cnc6c(N)ncnc65)O[C@@H]4COP(=O)(O)O[C@H]2[C@@H]3O)c(=O)[nH]1` gave a remaining compound of 80% (ENPP1 (Homo sapiens, UniProt P22413); substrate; 100 µM, 3 h).
The dizziness incidence of `CNCc1ccc(-c2[nH]c3cc(F)cc4c3c2CCNC4=O)cc1` is reported as 11.5% (human patients; oral, 600 mg twice daily, grade 1).
With `COc1cc(OC)c(NC(=O)CSc2nnc(-c3ccncc3)n2-c2ccccc2)cc1Cl` the Kd was over 100 µM (CDK2; binding).
`Cc1cc(N)c2c(OCC(C)(C)C(=O)NC(C)C)cccc2n1` — result for “mean revertant colonies”: 72 colonies/plate (Salmonella typhimurium; reverse mutation, plate incorporation; TA100; 500 µg/plate, without S9).

For quick reference, copied from above:
For `Cn1cc(-c2ccc(-c3cncc(Cl)c3N3CCC4(CCNC4=O)CC3)cc2)cn1`, “fold change in expression” read -6.8 (COLO 205; microarray, item: PLA2G2A; concentration not given, 6 h, gene set PLA2(hGIIA); baseline: untreated cells).
Under “average steady-state concentration”, `C[C@@H](N)COc1ccc(-c2cnc3ccc(N[C@H](C)c4cccc(F)c4)nn23)cc1` is recorded as 772 nmol/L (human, plasma; recommended dose, total).
